Experimental data gathered from unrelated publications.
Numbered parts are unrelated; each lists some results of a single study. Several values in a cell are separate wells, animals, samples, runs or records.
Sequence of UniProt Q9HBY8 (whole entry, looked up): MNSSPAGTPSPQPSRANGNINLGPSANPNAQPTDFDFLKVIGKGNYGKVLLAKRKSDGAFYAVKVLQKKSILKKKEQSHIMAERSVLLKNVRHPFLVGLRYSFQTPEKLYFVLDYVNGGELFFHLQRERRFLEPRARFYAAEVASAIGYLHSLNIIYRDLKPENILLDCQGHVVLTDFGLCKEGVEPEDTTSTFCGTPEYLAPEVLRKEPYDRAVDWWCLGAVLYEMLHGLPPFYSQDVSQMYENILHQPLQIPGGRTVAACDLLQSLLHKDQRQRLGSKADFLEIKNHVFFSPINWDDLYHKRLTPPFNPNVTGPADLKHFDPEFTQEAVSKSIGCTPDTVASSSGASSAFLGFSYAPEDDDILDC
Sequence of UniProt Q9NYL2 (whole entry, looked up): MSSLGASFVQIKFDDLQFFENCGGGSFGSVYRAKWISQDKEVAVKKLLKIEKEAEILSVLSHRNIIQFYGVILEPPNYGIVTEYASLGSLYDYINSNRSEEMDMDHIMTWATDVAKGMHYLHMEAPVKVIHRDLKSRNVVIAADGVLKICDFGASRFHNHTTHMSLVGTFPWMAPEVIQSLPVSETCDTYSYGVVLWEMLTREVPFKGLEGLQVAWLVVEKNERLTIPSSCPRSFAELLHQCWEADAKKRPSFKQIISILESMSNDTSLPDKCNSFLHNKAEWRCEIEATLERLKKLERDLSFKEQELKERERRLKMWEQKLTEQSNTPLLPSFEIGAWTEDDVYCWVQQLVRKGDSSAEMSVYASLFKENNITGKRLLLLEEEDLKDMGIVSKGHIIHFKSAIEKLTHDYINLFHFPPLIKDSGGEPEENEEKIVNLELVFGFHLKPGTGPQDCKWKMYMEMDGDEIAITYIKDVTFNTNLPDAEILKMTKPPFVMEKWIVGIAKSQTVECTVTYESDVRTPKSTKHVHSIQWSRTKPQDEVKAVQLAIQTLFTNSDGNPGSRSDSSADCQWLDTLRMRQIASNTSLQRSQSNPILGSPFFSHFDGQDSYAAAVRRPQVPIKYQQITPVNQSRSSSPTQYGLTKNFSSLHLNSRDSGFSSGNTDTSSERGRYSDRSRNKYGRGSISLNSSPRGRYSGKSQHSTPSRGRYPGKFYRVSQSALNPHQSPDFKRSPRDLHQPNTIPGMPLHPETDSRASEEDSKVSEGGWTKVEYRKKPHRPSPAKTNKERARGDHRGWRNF

Sample 1
Target: Beta-1 adrenergic receptor (ADRB1, Homo sapiens, UniProt P08588)
Sequence of UniProt P08588 (whole entry, looked up): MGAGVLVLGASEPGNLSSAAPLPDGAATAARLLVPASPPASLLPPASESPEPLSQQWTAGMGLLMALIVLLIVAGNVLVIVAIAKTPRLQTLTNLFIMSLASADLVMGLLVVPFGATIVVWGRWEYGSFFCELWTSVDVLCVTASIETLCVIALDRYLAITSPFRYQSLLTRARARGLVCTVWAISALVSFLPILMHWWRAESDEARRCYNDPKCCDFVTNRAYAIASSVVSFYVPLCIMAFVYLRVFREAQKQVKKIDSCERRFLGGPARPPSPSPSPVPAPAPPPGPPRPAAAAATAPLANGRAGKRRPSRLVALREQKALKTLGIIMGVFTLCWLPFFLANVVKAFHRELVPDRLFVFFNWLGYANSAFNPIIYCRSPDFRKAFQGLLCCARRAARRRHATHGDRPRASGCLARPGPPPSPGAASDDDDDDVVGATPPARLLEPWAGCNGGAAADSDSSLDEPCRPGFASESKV
Mode: agonist
With `O=C1c2cnc(-c3cccc(O)c3)nc2OCCN1c1cccc(C(F)(F)F)c1` the EC50 was no less than 100 µM.
For `c1ccc(-c2nc(NCc3cc4n(n3)CCCNC4)c3ccccc3n2)cc1`, the EC50 was no less than 100 µM.
With `COc1ccccc1N1CCN(C(C)C(=O)Nc2ccc(F)cc2)CC1` (stereo not shown) the EC50 was no less than 100 µM.
`Oc1cc2c(cc1O)C(c1ccccc1)CNCC2` (stereo not shown) has an EC50 of no less than 100 µM.
The EC50 of `Cc1noc2c(N(C)C)cc(-c3cccnc3)nc12` is reported as no less than 100 µM.
With `CN1CCN(Cc2cccc(OCC(O)CN3CCOCC3)c2)CC1(C)C` (stereo not shown) the EC50 was no less than 100 µM.

Sample 2
SMILES: C[C@H](c1cccc(C#N)c1)n1cc(Cl)cc(C(N)=O)c1=N
Read-out: cell-free assay
Method: competition with immobilised ligand
Tested at: 1 µM
The remaining binding was 100% (EGFR (Homo sapiens, UniProt P00533, G719C)).
For STK39 (Homo sapiens, UniProt Q9UEW8): remaining binding read 100%.
The remaining binding was 97% (Ribosomal protein S6 kinase alpha-1, C-terminal kinase domain (RPS6KA1, Homo sapiens, UniProt Q15418)).
It gave 71% for remaining binding (ULK2 (Homo sapiens, UniProt Q8IYT8)).
MYLK2 (Homo sapiens, UniProt Q9H1R3) — remaining binding: 100%.
It gave 83% for remaining binding (KIT (Homo sapiens, UniProt P10721, V559D)).
MAP3K4 (Homo sapiens, UniProt Q9Y6R4) — remaining binding: 47%.
The remaining binding was 100% (SGK2 (Homo sapiens, UniProt Q9HBY8)).
For ABL2 (Homo sapiens, UniProt P42684): remaining binding read 90%.
For FLT3 (Homo sapiens, UniProt P36888): remaining binding read 95%.
It gave 90% for remaining binding (TAOK1 (Homo sapiens, UniProt Q7L7X3)).
It gave 83% for remaining binding (HIPK1 (Homo sapiens, UniProt Q86Z02)).
NIM1K (Homo sapiens, UniProt Q8IY84) — remaining binding: 84%.
NUAK1 (Homo sapiens, UniProt O60285) — remaining binding: 57%.
For RET (Homo sapiens, UniProt P07949, V804M): remaining binding read 100%.
MARK2 (Homo sapiens, UniProt Q7KZI7) — remaining binding: 100%.
MAP3K20 (Homo sapiens, UniProt Q9NYL2) — remaining binding: 86%.

Sample 3
Target: Calcium/calmodulin-dependent protein kinase type II subunit alpha (CAMK2A, Homo sapiens, UniProt Q9UQM7)
Sequence of UniProt Q9UQM7 (whole entry, looked up): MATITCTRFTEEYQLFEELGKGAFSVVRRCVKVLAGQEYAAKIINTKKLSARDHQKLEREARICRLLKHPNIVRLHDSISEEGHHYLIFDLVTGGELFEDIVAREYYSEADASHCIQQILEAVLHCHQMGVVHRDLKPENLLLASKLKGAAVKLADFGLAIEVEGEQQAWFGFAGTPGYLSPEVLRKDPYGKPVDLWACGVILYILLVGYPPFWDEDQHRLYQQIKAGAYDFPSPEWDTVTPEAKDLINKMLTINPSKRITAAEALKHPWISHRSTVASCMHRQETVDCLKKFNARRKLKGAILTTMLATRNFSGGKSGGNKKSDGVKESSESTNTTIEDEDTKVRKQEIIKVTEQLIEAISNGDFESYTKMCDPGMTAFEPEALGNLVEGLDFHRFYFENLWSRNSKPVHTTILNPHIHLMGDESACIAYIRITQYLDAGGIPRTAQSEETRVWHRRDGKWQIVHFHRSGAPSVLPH
Read-out: enzyme activity
Mode: inhibitor
Tested at: 10 µM
`CCOc1ccc(NC(C)=O)cc1` has an inhibition of -6%.
The inhibition of `CCCCCC(C)O` (stereo not shown) is reported as 22%.
With `CC(=O)OC[C@H]1O[C@@H](OC(C)=O)[C@H](OC(C)=O)[C@@H](OC(C)=O)[C@@H]1OC(C)=O` the inhibition was -8%.
With `Cc1c(NC(=O)c2cccnc2)c(=O)n(-c2ccccc2)n1C` the inhibition was -8%.
For `CC(C)=CCC[C@@](C)(O)[C@H]1CC[C@]2(C)[C@@H]1[C@H](O)C[C@@H]1[C@@]3(C)CC[C@H](O)C(C)(C)[C@@H]3CC[C@]12C`, the inhibition was -9%.
With `C[C@@H]1O[C@@H](O[C@H]2[C@H](Oc3c(-c4ccc(O)cc4)oc4cc(O)cc(O)c4c3=O)O[C@H](CO)[C@@H](O)[C@@H]2O)[C@H](O)[C@H](O)[C@H]1O` the inhibition was -0.3% and 0.01%.
The inhibition of `O=C(/C=C/c1ccc(O)c(O)c1)O[C@@H]1C[C@](O)(C(=O)O)C[C@@H](OC(=O)/C=C/c2ccc(O)c(O)c2)[C@H]1O` is reported as -38%.
`C=C(C)[C@@H]1CC[C@]2(C(=O)O)CC[C@]3(C)[C@H](CC[C@@H]4[C@@]5(C)CC[C@H](O)[C@@](C)(CO)[C@@H]5CC[C@]43C)[C@@H]12` gave an inhibition of -15%.

Sample 4
Target: DNA polymerase theta, ATPase domain (POLQ, Homo sapiens, UniProt O75417)
Sequence of UniProt O75417 (whole entry, unmodified, looked up): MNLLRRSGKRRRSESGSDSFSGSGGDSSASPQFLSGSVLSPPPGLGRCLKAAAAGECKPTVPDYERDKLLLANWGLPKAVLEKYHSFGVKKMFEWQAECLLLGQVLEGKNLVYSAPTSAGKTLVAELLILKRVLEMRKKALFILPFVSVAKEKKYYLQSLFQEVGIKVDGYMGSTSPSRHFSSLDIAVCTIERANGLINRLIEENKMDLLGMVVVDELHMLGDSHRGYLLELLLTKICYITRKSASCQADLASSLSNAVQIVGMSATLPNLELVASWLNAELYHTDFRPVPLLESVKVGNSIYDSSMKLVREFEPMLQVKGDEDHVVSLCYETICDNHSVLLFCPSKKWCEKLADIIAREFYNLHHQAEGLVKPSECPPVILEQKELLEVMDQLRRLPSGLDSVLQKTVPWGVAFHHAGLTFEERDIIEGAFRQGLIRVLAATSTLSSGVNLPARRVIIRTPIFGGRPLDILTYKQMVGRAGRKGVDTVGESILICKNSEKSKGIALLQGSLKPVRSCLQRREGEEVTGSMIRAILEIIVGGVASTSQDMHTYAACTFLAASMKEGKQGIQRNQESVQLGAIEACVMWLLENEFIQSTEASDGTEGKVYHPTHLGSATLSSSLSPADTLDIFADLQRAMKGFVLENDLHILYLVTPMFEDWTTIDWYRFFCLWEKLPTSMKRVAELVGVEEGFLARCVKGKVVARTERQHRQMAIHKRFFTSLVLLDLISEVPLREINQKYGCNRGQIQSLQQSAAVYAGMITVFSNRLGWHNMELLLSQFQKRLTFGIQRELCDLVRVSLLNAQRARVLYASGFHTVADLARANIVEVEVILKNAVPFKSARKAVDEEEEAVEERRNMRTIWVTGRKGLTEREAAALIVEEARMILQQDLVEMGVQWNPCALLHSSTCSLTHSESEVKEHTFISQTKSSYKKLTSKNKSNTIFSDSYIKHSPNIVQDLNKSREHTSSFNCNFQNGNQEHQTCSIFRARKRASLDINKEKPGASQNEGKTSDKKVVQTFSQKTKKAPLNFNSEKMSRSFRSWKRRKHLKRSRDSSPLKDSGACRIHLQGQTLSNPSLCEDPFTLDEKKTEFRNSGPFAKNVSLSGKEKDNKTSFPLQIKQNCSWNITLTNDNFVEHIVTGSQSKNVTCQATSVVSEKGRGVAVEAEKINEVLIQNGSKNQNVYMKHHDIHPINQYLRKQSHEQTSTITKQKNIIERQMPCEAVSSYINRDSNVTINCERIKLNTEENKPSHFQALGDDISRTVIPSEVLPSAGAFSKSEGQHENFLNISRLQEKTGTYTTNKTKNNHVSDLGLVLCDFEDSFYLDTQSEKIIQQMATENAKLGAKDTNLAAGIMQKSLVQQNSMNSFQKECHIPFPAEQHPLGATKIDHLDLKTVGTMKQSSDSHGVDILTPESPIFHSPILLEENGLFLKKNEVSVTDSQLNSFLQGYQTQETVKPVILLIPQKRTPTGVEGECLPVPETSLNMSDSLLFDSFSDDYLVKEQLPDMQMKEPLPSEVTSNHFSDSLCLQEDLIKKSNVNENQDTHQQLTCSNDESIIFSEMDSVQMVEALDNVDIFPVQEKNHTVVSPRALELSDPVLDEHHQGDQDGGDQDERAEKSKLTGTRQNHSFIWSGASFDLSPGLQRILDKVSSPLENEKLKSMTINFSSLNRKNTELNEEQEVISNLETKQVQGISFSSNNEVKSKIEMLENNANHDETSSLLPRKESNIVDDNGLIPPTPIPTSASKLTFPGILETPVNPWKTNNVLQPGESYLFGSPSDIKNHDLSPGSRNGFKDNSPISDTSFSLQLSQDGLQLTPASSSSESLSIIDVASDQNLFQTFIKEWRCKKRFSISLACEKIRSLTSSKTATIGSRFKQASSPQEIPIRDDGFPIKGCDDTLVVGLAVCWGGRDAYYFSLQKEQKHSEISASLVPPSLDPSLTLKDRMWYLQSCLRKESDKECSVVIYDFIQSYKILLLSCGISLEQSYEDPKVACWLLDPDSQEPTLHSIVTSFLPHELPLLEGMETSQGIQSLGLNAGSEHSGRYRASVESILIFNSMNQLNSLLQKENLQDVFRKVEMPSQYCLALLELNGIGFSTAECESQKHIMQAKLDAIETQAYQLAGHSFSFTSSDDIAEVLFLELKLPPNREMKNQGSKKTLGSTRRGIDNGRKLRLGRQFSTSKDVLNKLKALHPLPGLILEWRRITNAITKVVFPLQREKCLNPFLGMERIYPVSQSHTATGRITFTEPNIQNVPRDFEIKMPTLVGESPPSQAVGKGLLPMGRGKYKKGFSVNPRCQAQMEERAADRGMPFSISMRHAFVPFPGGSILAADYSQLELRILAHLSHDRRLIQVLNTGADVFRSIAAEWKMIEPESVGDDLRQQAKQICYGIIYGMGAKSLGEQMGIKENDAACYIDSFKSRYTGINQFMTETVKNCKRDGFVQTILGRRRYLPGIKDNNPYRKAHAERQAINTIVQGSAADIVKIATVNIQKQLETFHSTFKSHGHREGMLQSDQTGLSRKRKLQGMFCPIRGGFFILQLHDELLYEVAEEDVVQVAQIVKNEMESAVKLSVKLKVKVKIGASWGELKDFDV
Read-out: enzyme activity
Mode: inhibitor
Tested at: 77 µM
Reference: untreated
`NCc1c[nH]c(=S)n1[C@@H]1CCc2c(F)cc(F)cc2C1` has a remaining activity of 102%.
For `NC(=O)c1cc[n+](CC2=C(C(=O)O)N3C(=O)[C@@H](NC(=O)[C@@H](c4ccccc4)S(=O)(=O)[O-])[C@H]3SC2)cc1`, the remaining activity was 103% and 93.5%.
`CO[C@]12C[C@@H](COC(=O)c3cncc(Br)c3)CN(C)[C@@H]1Cc1cn(C)c3cccc2c13` gave a remaining activity of 99%.
For `CCCCc1c(-c2ccc(OC)cc2)[nH]c2nccnc12`, the remaining activity was 82.4%.
`CCN(CCCCOC(=O)c1ccc(OC)c(OC)c1)C(C)Cc1ccc(OC)cc1` (stereo not shown) has a remaining activity of 104%.
With `COCCOc1cc2nc[nH]c(=O)c2cc1OCCOC` the remaining activity was 101%.
`CS(=O)(=O)c1ccc(C2=C(c3ccccc3)C(=O)OC2)cc1` has a remaining activity of 105%.
With `CC1(C)CCC2=C(O1)c1ccccc1C(=O)C2=O` the remaining activity was 78.4%.
`COc1ccc(-c2ccc3c(N4CCOCC4)nc(N4C[C@@H](C)O[C@@H](C)C4)nc3n2)cc1CO` gave a remaining activity of 94.7% and 108% and 106%.

Excerpt of the above (sample 2):
For STK39 (Homo sapiens, UniProt Q9UEW8): remaining binding read 100%.
The remaining binding was 100% (EGFR (Homo sapiens, UniProt P00533, G719C)).
For FLT3 (Homo sapiens, UniProt P36888): remaining binding read 95%.
It gave 90% for remaining binding (TAOK1 (Homo sapiens, UniProt Q7L7X3)).
It gave 83% for remaining binding (HIPK1 (Homo sapiens, UniProt Q86Z02)).
